Experimental data gathered from unrelated publications.
Several values in a cell are separate wells, animals, samples, runs or records. ± marks the error that the study gave.
Albumin: Albumin (Mus musculus, UniProt P07724)
UniProt P07724, sequence (whole entry, looked up): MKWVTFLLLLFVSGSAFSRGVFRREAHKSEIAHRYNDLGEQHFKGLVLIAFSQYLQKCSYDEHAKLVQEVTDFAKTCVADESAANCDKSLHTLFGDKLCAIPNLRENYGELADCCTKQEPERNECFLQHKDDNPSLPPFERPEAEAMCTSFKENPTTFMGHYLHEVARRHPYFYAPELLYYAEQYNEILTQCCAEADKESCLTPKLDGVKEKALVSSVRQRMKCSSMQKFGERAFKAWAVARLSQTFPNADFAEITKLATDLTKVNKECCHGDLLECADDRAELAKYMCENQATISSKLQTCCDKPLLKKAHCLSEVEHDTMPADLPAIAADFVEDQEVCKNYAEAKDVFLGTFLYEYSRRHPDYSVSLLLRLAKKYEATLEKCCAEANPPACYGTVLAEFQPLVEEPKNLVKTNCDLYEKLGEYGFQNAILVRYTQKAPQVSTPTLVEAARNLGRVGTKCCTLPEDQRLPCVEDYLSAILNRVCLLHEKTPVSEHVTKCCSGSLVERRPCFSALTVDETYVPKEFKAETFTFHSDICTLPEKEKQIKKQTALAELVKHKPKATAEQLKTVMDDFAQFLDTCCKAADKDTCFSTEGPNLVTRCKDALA
TDP1: Tyrosyl-DNA phosphodiesterase 1 (TDP1, Homo sapiens, UniProt Q9NUW8)
UniProt P10632, sequence (whole entry, looked up): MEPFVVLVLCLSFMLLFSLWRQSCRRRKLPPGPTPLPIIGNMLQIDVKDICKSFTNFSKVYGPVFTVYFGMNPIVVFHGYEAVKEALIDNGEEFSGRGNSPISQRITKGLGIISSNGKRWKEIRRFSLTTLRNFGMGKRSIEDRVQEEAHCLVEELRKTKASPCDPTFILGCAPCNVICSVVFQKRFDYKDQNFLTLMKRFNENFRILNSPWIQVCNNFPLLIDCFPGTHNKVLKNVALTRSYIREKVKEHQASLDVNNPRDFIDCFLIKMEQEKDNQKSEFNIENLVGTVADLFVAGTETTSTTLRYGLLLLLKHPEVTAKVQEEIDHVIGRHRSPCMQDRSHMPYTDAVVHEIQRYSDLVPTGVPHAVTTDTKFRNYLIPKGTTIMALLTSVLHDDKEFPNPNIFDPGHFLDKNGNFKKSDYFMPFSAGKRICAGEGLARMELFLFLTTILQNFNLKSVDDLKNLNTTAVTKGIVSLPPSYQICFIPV
UniProt Q9NUW8, sequence (whole entry, looked up): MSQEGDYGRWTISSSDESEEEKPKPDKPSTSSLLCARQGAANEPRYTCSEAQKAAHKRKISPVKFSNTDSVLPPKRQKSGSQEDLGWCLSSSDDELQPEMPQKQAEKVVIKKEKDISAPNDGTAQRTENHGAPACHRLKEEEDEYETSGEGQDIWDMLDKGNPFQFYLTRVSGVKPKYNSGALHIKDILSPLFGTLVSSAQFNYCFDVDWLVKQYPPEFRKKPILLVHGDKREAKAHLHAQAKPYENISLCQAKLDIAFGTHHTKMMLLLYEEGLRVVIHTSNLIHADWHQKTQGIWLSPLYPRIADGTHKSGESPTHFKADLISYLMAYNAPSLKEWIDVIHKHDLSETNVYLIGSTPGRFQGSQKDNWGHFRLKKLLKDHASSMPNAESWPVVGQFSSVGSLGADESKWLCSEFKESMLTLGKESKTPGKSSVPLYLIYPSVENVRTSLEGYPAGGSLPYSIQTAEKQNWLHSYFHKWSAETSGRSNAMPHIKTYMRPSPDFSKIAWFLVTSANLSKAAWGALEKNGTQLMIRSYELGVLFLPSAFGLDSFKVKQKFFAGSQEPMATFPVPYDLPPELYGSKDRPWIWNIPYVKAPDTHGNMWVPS
UniProt P0A7A9, sequence (whole entry, looked up): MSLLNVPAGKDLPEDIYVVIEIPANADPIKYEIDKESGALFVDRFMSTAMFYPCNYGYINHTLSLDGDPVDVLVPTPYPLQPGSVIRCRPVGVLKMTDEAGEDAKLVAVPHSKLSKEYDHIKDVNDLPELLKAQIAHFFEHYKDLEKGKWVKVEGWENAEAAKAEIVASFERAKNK

SMILES	tested on	assay	test system	conditions	how to read	measurement	value
COc1cccc(OC)c1-c1cc(C(=O)NC2(C(=O)O)C3CC4CC(C3)CC2C4)nn1-c1ccc(C(=O)N(C)CCCN(C)CCCN(C)C(=O)[C@H](CCCCNC(=O)[C@H](CC(C)C)NC(=O)C2OC2C(=O)O)NC(=O)CN2CCN(CC(=O)[O-])CCN(CC(=O)[O-])CCN(CC(=O)[O-])CC2)cc1C(C)C.[177Lu+3] (mixture of isomers)	HT-29 tumour model	–	host not given, blood	24 h, tumour-bearing	–	tracer uptake	0.4 %ID/g
O=C(/C=C/c1cccc(Br)c1)c1ccccc(=O)c1O	HepDES19	cell growth or viability, MTS	–	72 h	–	CC50	17.1 µM
O=C1NC2(CC2)COc2ncc(F)cc2[C@H]2COCCN2c2ccn3ncc1c3n2	Salmonella typhimurium	Ames test	TA97a	50 µg/plate, 48 h, with: without S9	–	revertant colonies	86 ± 11 revertants/plate
COc1cccc(OC)c1-c1cc(C(=O)NC2(C(=O)O)C3CC4CC(C3)CC2C4)nn1-c1ccc(C(=O)N(C)CCOCCOCCN(C)C(=O)[C@H](CCCCNC(=O)[C@H](CC(C)C)NC(=O)C2OC2C(=O)O)NC(=O)CN2CCN(CC(=O)[O-])CCN(CC(=O)[O-])CCN(CC(=O)[O-])CC2)cc1C(C)C.[177Lu+3] (mixture of isomers)	HT-29 tumour model	–	host not given, stomach	72 h, tumour-bearing	–	tracer uptake	0.026 %ID/g
COc1ccccc1C(=O)Oc1cccccc1=O	HepDES19	cell growth or viability, MTS	–	72 h	–	CC50	> 100 µM
CN1CCN(c2ccc3[nH]c(-c4ccc5[nH]c(-c6ccc(OCCCCNC(=O)c7ccc8c(c7)C(=O)OC87c8ccc(N(C)C)cc8C(C)(C)c8cc(N(C)C)ccc87)cc6)nc5c4)nc3c2)CC1	Albumin	–	PBS	1 µM, 1 h, with: 25 mg/mL albumin	–	fluorescence quantum yield	0.04 ± 0.02
CNC(=O)C1CCCN(C(=O)C2CC3CCC2N3C(=O)[C@@H]2C[C@@H](O)CN2C(=O)NCc2cccc(Cl)c2F)C1 (mixture of isomers)	Cytochrome P450 2C8 (CYP2C8, Homo sapiens, UniProt P10632)	preincubation with NADPH	human	5.56 µM	baseline: negative control	remaining activity	93.6% and 106% and 71.1%
N#C[C@@H]1CC(F)(F)CN1C(=O)CNC(=O)c1ccnc2c(NC(=O)[C@H](CCCCNC(=O)CCOCCOCCOCCOCCOCCOCCNC(=O)CN3CCN(CC(=O)[O-])CCN(CC(=O)[O-])CCN(CC(=O)[O-])CC3)NC(=O)CCCc3ccc(I)cc3)cccc12.[177Lu+3]	U-87 MG tumour model	–	host not given, bone	72 h, tumour-bearing	–	tracer uptake	0.68 %ID/g
CCOC(=O)c1c(C)cc(O)c(=O)c(O)c1O	HepDES19	cell growth or viability, MTS	–	72 h	–	CC50	12.2 µM
CN1CCN(c2ccc3[nH]c(-c4ccc5[nH]c(-c6ccc(OCCCCNC(=O)c7ccc8c(c7)C(=O)OC87c8ccc(N(C)C)cc8[Si](C)(C)c8cc(N(C)C)ccc87)cc6)nc5c4)nc3c2)CC1	Albumin	binding, second site, fluorescence titration	PBS	–	–	Kd	> 1000 µM
Cc1cc(O)c(=O)c(O)cc1-c1ccc(C(F)(F)F)cc1	HepDES19	cell growth or viability, MTS	–	72 h	–	CC50	6.3 µM
CN1CCN(c2ccc3[nH]c(-c4ccc5[nH]c(-c6ccc(OCCCCNC(=O)c7ccc8c(c7)C7(OC8=O)c8ccc(N(C)C)cc8C(C)(C)c8cc(N(C)C)ccc87)cc6)nc5c4)nc3c2)CC1	Albumin	–	PBS	1 µM, 1 h, with: 25 mg/mL albumin	–	fluorescence quantum yield	0.07 ± 0.02
N#C[C@@H]1CC(F)(F)CN1C(=O)CNC(=O)c1ccnc2c(NC(=O)CCOCCOCCOCCOCCOCCOCCNC(=O)[C@H](CCCCNC(=O)CN3CCN(CC(=O)[O-])CCN(CC(=O)[O-])CCN(CC(=O)[O-])CC3)NC(=O)CCCc3ccc(I)cc3)cccc12.[177Lu+3]	U-87 MG tumour model	–	host not given, stomach	4 h, tumour-bearing	–	tracer uptake	0.58 %ID/g
c1csc(C2=Nn3c(nnc3C3CCCCC3)SC2)c1	Inorganic pyrophosphatase (ppa, Escherichia coli, UniProt P0A7A9)	enzyme activity, inhibitor	–	–	–	IC50	> 100 µM
CN(C)c1ccc2c(c1)[Si](C)(C)c1cc(N(C)C)ccc1C21OC(=O)c2c(C(=O)O)cccc21	Albumin	binding, fluorescence titration	PBS	–	–	Kd	0.16 ± 0.12 µM
COCc1cc(O)c(=O)c(O)c(C(=O)OC)c1C(=O)OC	HepDES19	cell growth or viability, MTS	–	72 h	–	CC50	112 µM
COC(=O)Nc1nc2cc(C(O)c3ccc(F)cc3)ccc2[nH]1 (stereo not drawn)	Escherichia coli	Ames preincubation test	WP2 uvrA	437.5 µg/plate, without S9	–	revertants	37.3 revertants/plate

SMILES	tested on	assay	test system	conditions	how to read	measurement	value
N=C(N)NCCC[C@@H]1NC(=O)[C@H](CCCNC(=N)N)NC(=O)[C@@H](CCCNC(=N)N)NC(=O)[C@@H](CCCNC(=N)N)NC(=O)[C@@H](C(c2ccccc2)c2ccccc2)NC(=O)[C@@H](Cc2c[nH]c3ccccc23)NC(=O)[C@@H](C(c2ccccc2)c2ccccc2)NC1=O	human red blood cells	haemolysis	–	2 h, 37 °C	–	HC50	305 µg/mL
O=C1C2CC3CC1CC(C(=O)N1CCN(c4ccc([N+](=O)[O-])c5ncccc45)CC1)(C3)C2	Salmonella typhimurium	Ames test	TA98	0.31 µg/well, with S9	–	mean revertant colonies	5 colonies/well
Cc1cc(O)c(=O)c(O)cc1-c1ccc(Br)cc1	HepDES19	cell growth or viability, MTS	–	72 h	–	CC50	38.3 µM
Nc1nc2cc(C(=O)c3ccc(F)cc3)ccc2[nH]1	Salmonella typhimurium	Ames preincubation test	TA1537	39.0 µg/plate, without S9	–	revertants	10.3 revertants/plate
Cc1nn(C)c(N2CCOCC2)c1C=NOCc1ccc(-c2nc3cc(-c4ccccc4)ccn3c2Nc2ccc(C(=O)O)cc2)cc1	TDP1	enzyme activity, inhibitor	–	100 µM, unpurified compound	–	inhibition	84.8%
C=C(NC(=O)c1csc(-c2nc3c(cc2O)-c2nc(cs2)C(=O)NC(C(C)O)C(=O)NC(=C(C)OC)c2nc(cs2)C(=O)NC2c4nc(cs4)C(=O)NC(COC(=O)c4c5c6c(cccc6n4O)COC(=O)C(OC4CC(C)(O)C(N(C)C)C(C)O4)C2OC5)c2nc-3cs2)n1)C(N)=O (stereo not drawn)	–	–	Sprague-Dawley rat, both sexes, plasma	intravenous infusion, 18 mg/kg single dose	–	AUC(0-last)	5480 ± 1000 ng·h/mL
CC(C)Cc1ccc(C(C)C(=O)N[C@@H](CCCCNC(=O)CCOCCOCCOCCOCCOCCOCCNC(=O)CN2CCN(CC(=O)[O-])CCN(CC(=O)[O-])CCN(CC(=O)[O-])CC2)C(=O)Nc2cccc3c(C(=O)NCC(=O)N4CC(F)(F)C[C@H]4C#N)ccnc23)cc1.[177Lu+3] (stereo partly drawn)	U-87 MG tumour model	–	host not given, stomach	24 h, tumour-bearing	–	tracer uptake	0.44 %ID/g
CC(C)OCCOCc1ccc(OCC(O)CN(N=O)C(C)C)cc1 (stereo not drawn)	Salmonella typhimurium	Ames test	TA1535	5 µg/plate, 30 % rat S9	baseline: solvent control	revertant fold increase	0.9 fold
O=C(O)c1ccc(Nc2c(-c3ccc(CON=Cc4ccc(N5CCCCC5)o4)cc3)nc3cc(-c4ccccc4)ccn23)cc1 (mixture of isomers)	TDP1	enzyme activity, inhibitor	–	100 µM, unpurified compound	–	inhibition	92.6%
N#C[C@@H]1CCCN1C(=O)CNC(=O)c1ccnc2ccc(OCCCN3CCN(C(=O)CCc4ccc(O)c(CN5CCN6CC(=O)[O][Al-]([18F])([O]C(=O)C5)[O]c5ccc(CCC(=O)N7CCN(CCCOc8ccc9nccc(C(=O)NCC(=O)N%10CCC[C@H]%10C#N)c9c8)CC7)cc5C6)c4)CC3)cc12 (stereo partly drawn)	U-87 MG tumour model	–	host not given, muscle	2 h, tumour-bearing	–	tracer uptake	2.3 %ID/g
CCN(CC)CC#CCNc1ccnc2cc(Cl)ccc12	Salmonella typhimurium	mini-Ames test	TA97a	1000.0 µg/well, with rat liver S9	–	revertants	13 revertants/well and 8 revertants/well
Cc1cc(O)c(=O)c(O)cc1C(=O)C(C)C	HepDES19	cell growth or viability, MTS	–	72 h	–	CC50	> 100 µM
COc1cccc(OC)c1-c1cc(C(=O)NC2(C(=O)O)C3CC4CC(C3)CC2C4)nn1-c1ccc(C(=O)NCCNC(=O)[C@H](CCCCNC(=O)[C@H](CC(C)C)NC(=O)C2OC2C(=O)O)NC(=O)CN2CCN(CC(=O)[O-])CCN(CC(=O)[O-])CCN(CC(=O)[O-])CC2)cc1C(C)C.[177Lu+3] (mixture of isomers)	HT-29 tumour model	–	host not given, blood	7 days, tumour-bearing	–	tracer uptake	0.16 %ID/g
N#C[C@@H]1CCCN1C(=O)CNC(=O)c1ccnc2ccc(OCCCN3CCN(C(=O)CCc4ccc5c(c4)CN4CCN6CC(=O)[O][68Ga-]([O]C(=O)C4)([O]5)[O]c4ccc(CCC(=O)N5CCN(CCCOc7ccc8nccc(C(=O)NCC(=O)N9CCC[C@H]9C#N)c8c7)CC5)cc4C6)CC3)cc12	U-87 MG tumour model	–	host not given, intestine	1 h, tumour-bearing	–	tracer uptake	3.1 %ID/g
COc1ccc(C(=O)c2cc(O)c(=O)c(O)cc2C)cc1	HepDES19	cell growth or viability, MTS	–	72 h	–	CC50	27.8 µM
CC(C(=O)O)c1n[nH]c2nc(N)[nH]c(=O)c2c1=O (stereo not drawn)	Escherichia coli	LC-MS/MS	BW25113	100 µM, 10 min, 37 °C	–	intracellular accumulation	0.49 ± 0.2 µM

Some of these lines once more:
SMILES	tested on	assay	test system	conditions	how to read	measurement	value
N#C[C@@H]1CCCN1C(=O)CNC(=O)c1ccnc2ccc(OCCCN3CCN(C(=O)CCc4ccc(O)c(CN5CCN6CC(=O)[O][Al-]([18F])([O]C(=O)C5)[O]c5ccc(CCC(=O)N7CCN(CCCOc8ccc9nccc(C(=O)NCC(=O)N%10CCC[C@H]%10C#N)c9c8)CC7)cc5C6)c4)CC3)cc12 (stereo partly drawn)	U-87 MG tumour model	–	host not given, muscle	2 h, tumour-bearing	–	tracer uptake	2.3 %ID/g
CCOC(=O)c1c(C)cc(O)c(=O)c(O)c1O	HepDES19	cell growth or viability, MTS	–	72 h	–	CC50	12.2 µM
CC(C)OCCOCc1ccc(OCC(O)CN(N=O)C(C)C)cc1 (stereo not drawn)	Salmonella typhimurium	Ames test	TA1535	5 µg/plate, 30 % rat S9	baseline: solvent control	revertant fold increase	0.9 fold
CCN(CC)CC#CCNc1ccnc2cc(Cl)ccc12	Salmonella typhimurium	mini-Ames test	TA97a	1000.0 µg/well, with rat liver S9	–	revertants	13 revertants/well and 8 revertants/well
